Published values collected from several papers.
Each line is one published result; not all experiments were run side by side. Values joined by “and” are separate records of one study, mostly repeats; a detail may differ.

SMILES	target	test	system	setting	scale	endpoint	result
CCCCCC(O)/C=C/C=O (stereo not shown)	REEP5 (Homo sapiens, UniProt Q00765)	competitive isoTOP-ABPP	Ramos soluble proteome	100 µM, 60 min, together with: iodoacetamide probe	baseline: DMSO over compound-treated, higher = stronger cysteine blockade	isoTOP-ABPP competition ratio	14
N#CN1CC[C@H](C(=O)Nc2nc3c(s2)CN(C(=O)CN=[N+]=[N-])CC3)C1	Elongation factor 2 (EEF2, Homo sapiens, UniProt P13639)	click pull-down LC-MS/MS	HEK293T cells			total spectral count	12
CC(=O)C12NC(C)(C)CC1(C)C(=O)C1=C2c2c(c3c4n2C(C)(C)CC2=C4C4(CC(C)(C)NC(C)(C4)C2=O)CC3(C)C)C(=O)C(C)(C)N1 (single isomer, unassigned; (-))	P2X purinoceptor 7 (P2RX7, Homo sapiens, UniProt Q99572)	ion current, agonist, whole-cell patch clamp	HEK293T	10 µM		activation	2.1%
CC(C=CC=C(C)C=CC1=C(C)CCCC1(C)C)=CC=O	Rhodopsin (RHO, Homo sapiens, UniProt P08100, T17M)	immunostaining, measured: opsin	COS-7 transfected	5.00 µM, unit not given	baseline: surface over total stained cells	plasma membrane localization	0.38
O=C1c2sc(-c3ccc(N4CCC(F)C4)nc3F)nc2CCN1c1cccnc1 (stereo not shown)	TAR DNA-binding protein 43, aggregated (TARDBP, Homo sapiens, UniProt Q13148)	saturation autoradiography	human, FTLD-TDP type A brain sections	50 nM		specific binding	301 nM
C[Si](C)(C)C[C@@H](CN)CC(=O)O	Galanin receptor type 1 (GALR1, Homo sapiens, UniProt P47211)	enzyme activity, inhibitor		75 µM		inhibition	2%
CN(C)c1ccc(-n2cc(COC(=O)[C@]3(C)C=C(C(=O)OC(C)(C)C)C(=O)CC3)nn2)cc1	Mitogen-activated protein kinase 8 (MAPK8, Homo sapiens, UniProt P45983)	D-peptide binding, inhibitor, FP peptide displacement		25 µM	lower is stronger displacement	fraction bound	0.32
CCOC(=O)[C@@](CC)(CCCSCCOCCOCCN)NC(=O)c1ccc(C2CC2)c(Cc2ccc(F)cc2)n1	Cannabinoid receptor 2 (Cnr2, Mus musculus, UniProt P47936)	cAMP, agonist				Emax	61%
CCCC1(C)C(=O)N(c2cccc(CN3CCN(Cc4ccc(Br)cc4)CC3)c2)C1=O	Dipeptidyl peptidase 8 (Homo sapiens, UniProt Q6V1X1)	enzyme activity, inhibitor		5 µM		activity vs control	9.5%
Cc1cc(C)cc(COc2cc3c(cc2OCc2cc(C)cc(C)c2)C2CC(O)(Cc4cn(CCOCCOCCNC(=O)CCCCC5SCC6NC(=O)NC65)nn4)CC(C)N2CC3)c1 (stereo not shown)	Non-selective voltage-gated ion channel VDAC2 (Homo sapiens, UniProt P45880)	biotinylated probe pull-down, measured: VDAC2		10 µM probe	baseline: heavy over light	SILAC ratio	1.93
CC[C@H](C)[C@@H]1NC(=O)[C@H](Cc2c[nH]c3ccccc23)NC(=O)[C@H](C)NC(=O)[C@H](Cc2ccc(O)cc2)NC(=O)CNC(=O)[C@H](Cc2ccccc2)N(C)C(=O)[C@H](C)N(C)C(=O)[C@H](Cc2ccc(O)cc2)NC(=O)[C@H](C(C)C)NC(=O)[C@H](CC(C)C)NC(=O)[C@H](Cc2ccccc2)NC(=O)CSC[C@@H](C(=O)NCC(N)=O)NC1=O	Stimulator of interferon genes protein (STING1, Homo sapiens, UniProt Q86WV6, H232R)	thermal stability, DSF		50 µM		ΔTm	0.45 °C
CC1(C)C[C@@H](Nc2cccc(-c3sc(C(=O)O)c(OCC(=O)O)c3Cl)c2)CCN1S(=O)(=O)Cc1cccc(NC(=O)CN2CCC(c3ccc4c(c3)oc(=O)n4C3CCC(=O)NC3=O)CC2)c1 (stereo partly shown)	Tyrosine-protein phosphatase non-receptor type 2 (PTPN2, Homo sapiens, UniProt P17706)	degrader, bio-layer interferometry		1000 nM, biotinylated protein immobilised	higher = more binding	BLI binding response	0.477 a.u. and 0.466 a.u.
COc1cc(-c2cn(C)c(=O)c3cnccc23)cc(OC)c1CN(C)C	Bromodomain testis-specific protein, BD2 (BRDT, Homo sapiens, UniProt Q58F21)					ΔTm	-2.4 °C

A few entries again:
SMILES	target	test	system	setting	scale	endpoint	result
CC(=O)C12NC(C)(C)CC1(C)C(=O)C1=C2c2c(c3c4n2C(C)(C)CC2=C4C4(CC(C)(C)NC(C)(C4)C2=O)CC3(C)C)C(=O)C(C)(C)N1 (single isomer, unassigned; (-))	P2X purinoceptor 7 (P2RX7, Homo sapiens, UniProt Q99572)	ion current, agonist, whole-cell patch clamp	HEK293T	10 µM		activation	2.1%
COc1cc(-c2cn(C)c(=O)c3cnccc23)cc(OC)c1CN(C)C	Bromodomain testis-specific protein, BD2 (BRDT, Homo sapiens, UniProt Q58F21)					ΔTm	-2.4 °C
